Measured values pooled from the literature.
Lines come from different studies, so protocols differ. Numbers after ± are the reported error.

CC1(C)CCCC(C)(C2CCC3(C)C2C(O)CC2C4(C)CCC(OC(=O)c5cn(-c6ccc(Cl)cc6)nn5)C(C)(C)C4C(O)CC23C)O1 (stereo not shown)  IC50 (Hep3B; cell growth or viability, MTT; 24 h): > 30 µM
CCCCCCc1ccc(S(=O)(=O)N2CC2C(=O)N(C)C)cc1 (stereo not shown)  IC50 (Balb/c 3T3 fibroblasts; cytotoxicity, neutral red uptake; DMEM with 5% FBS; 24 h): 11 ± 1 µM
CC(=O)OCC1OC(n2ccc(=O)[nH]c2=O)C2CC=CCC12 (mixture of isomers)  IC50 (CEM; cell growth; 6 days): > 100 µM
CC1OC(Oc2c(-c3ccc(O)cc3)oc3cc(O)cc(O)c3c2=O)C(OC(=O)C=Cc2ccc(O)cc2)C(O)C1OC(=O)C=Cc1ccc(O)cc1 (stereo not shown)  IC50 (Hepa1-6; cell growth or viability; 48 h): > 10 µM
Cc1ccc(N2Cc3cc(NC(=O)N4CCN(c5cccc(C(F)(F)F)c5)CC4)ccc3C2=O)cc1  IC50 (MRC-5 SV2; cytotoxicity): > 64 µM
CC1(C)CCCC(C)(C2CCC3(C)C2C(O)CC2C4(C)CCC(OC(=O)Nc5ccccc5)C(C)(C)C4C(OC(=O)Nc4ccccc4)CC23C)O1 (stereo not shown)  IC50 (Hep3B; cell growth or viability, MTT; 24 h): > 30 µM
CN(C)c1ccc2cc(S(=O)(=O)N3CC3C(N)=O)ccc2c1 (stereo not shown)  IC50 (Balb/c 3T3 fibroblasts; cytotoxicity, neutral red uptake; DMEM with 5% FBS; 24 h): 19 ± 1 µM
O=C(Nc1ccc2c(c1)CN(c1ccc(Br)cc1)C2=O)N1CCN(c2ccc(F)cc2)CC1  IC50 (MRC-5 SV2; cytotoxicity): > 64 µM
COc1cc(/C=C/C(=O)/C=C/c2ccc(O)c(OC)c2)ccc1O  IC50 (CEM-T; cell viability, calcein-AM; 24 h): 2.4 µM
CC1(C)CCCC(C)(C2CCC3(C)C2C(O)CC2C4(C)CCC(OC(=O)NC5CCCCC5)C(C)(C)C4C(OC(=O)NC4CCCCC4)CC23C)O1 (stereo not shown)  IC50 (Hep3B; cell growth or viability, MTT; 24 h): > 30 µM
O=C(Nc1ccc2c(c1)CN(c1ccc(Cl)c(Cl)c1)C2=O)N1CCN(c2ccccc2)CC1  IC50 (MRC-5 SV2; cytotoxicity): > 64 µM
CC1(C)CCCC(C)(C2CCC3(C)C2C(O)CC2C4(C)CCC(O)C(C)(C)C4C(OC(=O)/C=C\c4ccccc4)CC23C)O1 (stereo not shown)  IC50 (Hep3B; cell growth or viability, MTT; 24 h): > 30 µM
CN(C)C(=O)C1CN1S(=O)(=O)c1ccc(C2CCCCC2)cc1 (stereo not shown)  IC50 (Balb/c 3T3 fibroblasts; cytotoxicity, neutral red uptake; DMEM with 5% FBS; 24 h): 10 ± 1 µM
CC(=O)Nc1ccn(C2OC(COC(C)=O)C3CC=CCC32)c(=O)n1 (mixture of isomers)  IC50 (CEM; cell growth; 6 days): > 100 µM
O=C(Nc1ccc2c(c1)CN(c1ccc(F)c(F)c1)C2=O)N1CCN(c2ccc(Cl)cc2)CC1  IC50 (MRC-5 SV2; cytotoxicity): > 64 µM
C=C1C(=O)OC2C=C(C)CCC=C(C(=O)OC(C)C(C)(O)C(=O)OC3C(OC(C)=O)C(C(=O)OC)=CCCC(C)=CC4OC(=O)C(=C)C43)CC(OC(=O)C(C)=CC)C12 (stereo not shown)  IC50 (NIH/3T3; cytotoxicity, WST-8; 48 h, 10% FBS): 1.66 µM
CC(C)(C)OC(=O)NCC(=O)OC1CCC2(C)C(C(O)CC3(C)C2CC(O)C2C(C4(C)CCCC(C)(C)O4)CCC23C)C1(C)C (stereo not shown)  IC50 (Hep3B; cell growth or viability, MTT; 24 h): > 30 µM
CN(C)C(=O)C1CN1S(=O)(=O)c1cccc2ccccc12 (stereo not shown)  IC50 (Balb/c 3T3 fibroblasts; cytotoxicity, neutral red uptake; DMEM with 5% FBS; 24 h): 15 ± 4 µM
C=C1C(=O)OC2C=C(C)CCC=C(C(=O)OC(C)C(C)(O)C(=O)OC3C(OC(C)=O)C(C(=O)OC)=CCCC4(C)OC4C4OC(=O)C(=C)C34)CC(OC(=O)C(C)=CC)C12 (stereo not shown)  IC50 (NIH/3T3; cytotoxicity, WST-8; 24 h, 10% FBS): 4.81 µM
CC(=O)OCC1OC(n2cc(C=CBr)c(=O)[nH]c2=O)C2CC=CCC12 (mixture of isomers)  IC50 (CEM; cell growth; 6 days): > 100 µM
CCCCOc1ccc(S(=O)(=O)N2CC2C(=O)OC)cc1 (stereo not shown)  IC50 (Balb/c 3T3 fibroblasts; cytotoxicity, neutral red uptake; DMEM with 5% FBS; 24 h): 310 ± 10 µM
CCCCc1ccc(N2C(=O)/C(=N\NC(=N)N)c3cc(C)ccc32)cc1  IC50 (BJ; cell growth or viability, MTT; 24 h): 6.6 µg/mL
C=C1C(=O)O[C@@H]2/C=C(\C)CC/C=C(/C(=O)OC)[C@H](OC(C)=O)[C@@H](OC(=O)/C(C)=C\C)[C@@H]12  IC50 (NIH/3T3; cytotoxicity, WST-8; 48 h, 10% FBS): 5.24 µM
COc1ccc(-n2cc(C(=O)OC3CC4(C)C(CC(O)C5C(C6(C)CCCC(C)(C)O6)CCC54C)C4(C)CCC(OC(=O)c5cn(-c6ccc(OC)cc6)nn5)C(C)(C)C34)nn2)cc1 (stereo not shown)  IC50 (Hep3B; cell growth or viability, MTT; 24 h): > 30 µM
COC(=O)C1CN1S(=O)(=O)c1ccc(C)c2ccccc12 (stereo not shown)  IC50 (Balb/c 3T3 fibroblasts; cytotoxicity, neutral red uptake; DMEM with 5% FBS; 24 h): 48 ± 7 µM
Cc1cc(=O)c2c(O)c3c(O[C@@H]4O[C@H](CO)[C@@H](O)[C@H](O)[C@H]4O)cc(O)cc3cc2o1  IC50 (HepaRG in HK-2 co-culture; cell viability, MTT; 24 h): > 500 µM
Clc1ccc2ccc3[n+](c2c1)[Ir-3]12([c]4ccccc4-3)([c]3ccccc3-c3ccc4ccc(Cl)cc4[n+]31)[n+]1ccccc1-c1cccc[n+]12.F[P-](F)(F)(F)(F)F  IC50 (MDA-MB-231 CDK9 siRNA knockdown; cytotoxicity, MTT): 1.5 µM
Cc1ccc(N2Cc3cc(NC(=O)N4CCN(c5ccc(F)cc5)CC4)ccc3C2=O)cc1  IC50 (MRC-5 SV2; cytotoxicity): > 64 µM
Nc1ncnc2c1ncn2C1OC(CO)C2CC=CCC21 (mixture of isomers)  IC50 (CEM; cell growth; 6 days): > 100 µM
CCCCc1ccc(S(=O)(=O)N2CC2C(=O)N(C)C)cc1 (stereo not shown)  IC50 (Balb/c 3T3 fibroblasts; cytotoxicity, neutral red uptake; DMEM with 5% FBS; 24 h): 13 ± 1 µM
CC(C)(C)OC(=O)N[C@@H](Cc1c[nH]c2ccccc12)C(=O)OC1CC2(C)C(CC(O)C3C(C4(C)CCCC(C)(C)O4)CCC32C)C2(C)CCC(O)C(C)(C)C12 (stereo partly shown)  IC50 (Hep3B; cell growth or viability, MTT; 24 h): > 30 µM
C=C1C(=O)O[C@@H]2/C=C(\C)CC/C=C(/C(=O)OC)C[C@@H](OC(=O)/C(C)=C\C)[C@@H]12  IC50 (NIH/3T3; cytotoxicity, WST-8; 48 h, 10% FBS): 11.1 µM
N.N.O=C(CCCc1ccccc1)[O][Pt]([Cl])([Cl])[O]C(=O)CCCc1ccccc1  IC50 (HCT-116 p53-/-; cytotoxicity; 72 h): 0.34 ± 0.08 µM
O=C(Nc1ccc2c(c1)CN(c1ccc(Cl)cc1)C2=O)N1CC[C@H](O)C1  IC50 (MRC-5 SV2; cytotoxicity): > 64 µM
COC(=O)C1CN1S(=O)(=O)c1ccc(N(C)C)c2ccccc12 (stereo not shown)  IC50 (Balb/c 3T3 fibroblasts; cytotoxicity, neutral red uptake; DMEM with 5% FBS; 24 h): 153 ± 15 µM
O=C(Nc1ccc2c(c1)CN(c1ccccc1)C2=O)N1CCN(c2ccc(F)cc2)CC1  IC50 (MRC-5 SV2; cytotoxicity): > 64 µM
CC(C)(C)OC(=O)NCC(=O)OC1CC2(C)C(CC(O)C3C(C4(C)CCCC(C)(C)O4)CCC32C)C2(C)CCC(O)C(C)(C)C12 (stereo not shown)  IC50 (Hep3B; cell growth or viability, MTT; 24 h): > 30 µM

Repeated from above:
CN(C)C(=O)C1CN1S(=O)(=O)c1cccc2ccccc12 (stereo not shown)  IC50 (Balb/c 3T3 fibroblasts; cytotoxicity, neutral red uptake; DMEM with 5% FBS; 24 h): 15 ± 4 µM
C=C1C(=O)OC2C=C(C)CCC=C(C(=O)OC(C)C(C)(O)C(=O)OC3C(OC(C)=O)C(C(=O)OC)=CCCC4(C)OC4C4OC(=O)C(=C)C34)CC(OC(=O)C(C)=CC)C12 (stereo not shown)  IC50 (NIH/3T3; cytotoxicity, WST-8; 24 h, 10% FBS): 4.81 µM
CC(=O)OCC1OC(n2cc(C=CBr)c(=O)[nH]c2=O)C2CC=CCC12 (mixture of isomers)  IC50 (CEM; cell growth; 6 days): > 100 µM
CCCCOc1ccc(S(=O)(=O)N2CC2C(=O)OC)cc1 (stereo not shown)  IC50 (Balb/c 3T3 fibroblasts; cytotoxicity, neutral red uptake; DMEM with 5% FBS; 24 h): 310 ± 10 µM
CCCCc1ccc(N2C(=O)/C(=N\NC(=N)N)c3cc(C)ccc32)cc1  IC50 (BJ; cell growth or viability, MTT; 24 h): 6.6 µg/mL
C=C1C(=O)O[C@@H]2/C=C(\C)CC/C=C(/C(=O)OC)[C@H](OC(C)=O)[C@@H](OC(=O)/C(C)=C\C)[C@@H]12  IC50 (NIH/3T3; cytotoxicity, WST-8; 48 h, 10% FBS): 5.24 µM
